# Published values from different studies.
# Parts stem from different laboratories: compare values within a part only.

# Study 1 — method: protein-binding microarray; molecule type: double-stranded DNA, one strand shown; medium: in vitro; tested at: not given; direction: higher = stronger binding
# Target: Hepatocyte nuclear factor 3-beta, forkhead domain (FOXA2, Homo sapiens, UniProt Q9Y261, residues 142-269)
# Setting: k-mer, scored over probes, only values ≥0.25
# Target sequence (chain): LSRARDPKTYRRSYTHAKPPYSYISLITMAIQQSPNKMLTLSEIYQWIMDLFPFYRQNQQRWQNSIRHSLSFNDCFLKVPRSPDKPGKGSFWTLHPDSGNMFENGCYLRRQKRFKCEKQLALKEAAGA
Sequence,E-score
GTAGTATA,0.259
TAATCAAA,0.301
AATATGGT,0.277
TATGTTAA,0.339
AGTATAAA,0.292
ATGTTGTA,0.345
GTATCGTA,0.308
AAGTGTTG,0.255
CATAATTA,0.353
TATGTGCA,0.271
AGTTAGTA,0.251
ACAGTAAT,0.317
TCATCACA,0.255

# Study 2 — method: protein-binding microarray; molecule type: double-stranded DNA, one strand shown; medium: in vitro; tested at: 2540 nM top; setting: 60-bp whole probe; added: salmon DNA 0.4 mg/ml; reference: random background probes; direction: higher = stronger binding; constant ends, left off below: GCCTAGCAC … GTCTTGATTCGCTTGACGCTGCTG
# Target: Interferon regulatory factor 3, full length, phosphomimetic (IRF3, Homo sapiens, UniProt Q14653, residues 1-427, S386D/S396D/S398D/S402D/T404D/S405D)
# Target sequence (chain): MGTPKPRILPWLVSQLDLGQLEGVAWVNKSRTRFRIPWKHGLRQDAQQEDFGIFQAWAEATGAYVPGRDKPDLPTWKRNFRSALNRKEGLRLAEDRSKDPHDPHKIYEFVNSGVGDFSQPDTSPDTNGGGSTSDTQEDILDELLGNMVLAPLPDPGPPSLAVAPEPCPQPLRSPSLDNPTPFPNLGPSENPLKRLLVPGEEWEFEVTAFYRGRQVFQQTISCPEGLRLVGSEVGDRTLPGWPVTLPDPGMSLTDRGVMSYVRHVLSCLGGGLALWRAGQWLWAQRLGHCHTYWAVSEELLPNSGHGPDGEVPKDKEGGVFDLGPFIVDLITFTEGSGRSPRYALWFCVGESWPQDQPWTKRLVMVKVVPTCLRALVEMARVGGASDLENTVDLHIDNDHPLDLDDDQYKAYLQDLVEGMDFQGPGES
Sequence,fitted relative affinity
GACGAACCGGGGTTTCGAGACGTGCTA,0.574 z-score
TCATTTTCAATTTTTGCACTGTGCTAG,2.79 z-score
TTAGGTATCGGTCTCGGTTTGTGCTAG,5.07 z-score
TCATATATCCATTATAGACTGTGCTAG,1.52 z-score
TCATCTCCCCCATCTTGTACTGTGCTA,1.42 z-score
GACGGTTTCGGATTTCGGGACGTGCTA,7.64 z-score
GATGGTTTCCTTCTCCTGACGTGCTAG,10.1 z-score
GACGGTATGCTTTTCCTGACGTGCTAG,0.542 z-score
TTAGTTCTCAGTCTCGATTAGTGCTAG,1.43 z-score
GACGGTATCCTTATCCTGCCGTGCTAG,5.14 z-score
CACCTTCTTCATCAAGGACAGTGCTAG,2.03 z-score

# Study 3 — method: RNA Bind-n-Seq; molecule type: RNA; medium: in vitro; tested at: not given; reference: input RNA pool; direction: higher = stronger binding
# Target: RING finger protein unkempt homolog, zinc fingers 1-6, GST-SBP tag (UNK, Homo sapiens, UniProt Q9C0B0, residues 30-357)
# Sequence of UniProt Q9C0B0 (30-357, looked up): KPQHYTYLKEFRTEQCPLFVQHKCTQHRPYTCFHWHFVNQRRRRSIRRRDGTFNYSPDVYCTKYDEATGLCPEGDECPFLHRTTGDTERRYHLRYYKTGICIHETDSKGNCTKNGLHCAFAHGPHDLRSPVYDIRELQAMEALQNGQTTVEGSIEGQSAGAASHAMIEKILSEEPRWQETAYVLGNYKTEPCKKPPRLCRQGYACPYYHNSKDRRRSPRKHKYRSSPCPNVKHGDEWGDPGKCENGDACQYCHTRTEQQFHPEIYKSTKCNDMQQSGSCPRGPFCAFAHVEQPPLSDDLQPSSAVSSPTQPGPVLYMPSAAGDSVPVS
# Setting: RNA with constant flanks, human-mouse chimeric sites, ends assumed
# Constant ends, left off below: GGGAGUUCUACAGUCCGACGAUC … CAACAGAGGAUUGAGCAUCA
Sequence,bound/input enrichment [ratio]
ACUCAGAGAUUAUAUUCCCAAAGUGCUCUGGAGCUCUGUGUGGCCACCACACCUAACUUGAUGGAUAUAUAUUUUUUUUAAUAUGAAUCUUCCUGUUCGUCCAGGGAAGAAAGAUUUGUU,0.941
UUUGUAAUAUCUGUAAAAGGUUCCCCCCCCCUACUGUAAAAAAAUAUGCAUGUAUAGUAAUUAGGACUUCAUUCCUCCAUGUUUUCUUCCCUUAUCUUACUGUCAUUGUCCUUAAACCUU,4.5
UUUGUAUUUAUGCUAAGCACACGUGCUGGUGGUCUGGGCAUCAAUCUUGCGACUGCUGAUGUAGUCAUUUUAUAUGACUCAGAUUGGAAUCCCCAAGUUGAUCUUCAGGCUAUGGACCGU,0.145
CUGGCACUCUAUCAGAUAGAUUACUUUUUUAAUGUAGAUGUAAUUUUAAAAAUGAAUGGCUACUUUACACGUUUAACUAGGCUCUUACUAUAUAUGUGUACAUAUGUAUAUAUAUAUAUA,13.3
GAGUCGAUUAUGGAAACAACAAUUCGUUAUCUUGCAGCCUCAGUGUUUUUACUUGCCGCGAUAGCAUUGGGGUUUUAUAGGUUCUGGAAGGAGAACUGACGAUGAUGCUGCCGCUGCUGC,0.247
CUUAAUGUUAAUAUUUUUGAAUAAAUGAAGCUAAAAUGUCUGCUUUUGGUACAACACGCAUUAAUAAAAGGUUAAGUAAGUUUUGUUACUGAAGUACUAUUUAACAUACAUCUCAGAAAC,0.28

# Further values, each from its own experiment
Molecule,tested on,test,system,conditions,how to read,quantity,value
"HNRNPU (Homo sapiens, UniProt Q00839)","GPKOW (Homo sapiens, UniProt Q92917)",cross-linking MS,cell fractions,added: DSSO,,cross-linked residues,K551 to K178
"PhoQ, residues 284 288 289 292 302 303 AAQSYM","PhoP, residues 12 14 15 18 19 QWHVF (Escherichia coli, UniProt P23836)","Sort-seq, item: YFP reporter",E. coli,"PhoQ-PhoP variant library, added: 10 µM Mg2+","reference: high Mg2+ state, higher = stronger signaling",fold induction,9.2

# A few entries again (study 3):
Sequence,bound/input enrichment [ratio]
GAGUCGAUUAUGGAAACAACAAUUCGUUAUCUUGCAGCCUCAGUGUUUUUACUUGCCGCGAUAGCAUUGGGGUUUUAUAGGUUCUGGAAGGAGAACUGACGAUGAUGCUGCCGCUGCUGC,0.247
ACUCAGAGAUUAUAUUCCCAAAGUGCUCUGGAGCUCUGUGUGGCCACCACACCUAACUUGAUGGAUAUAUAUUUUUUUUAAUAUGAAUCUUCCUGUUCGUCCAGGGAAGAAAGAUUUGUU,0.941
UUUGUAAUAUCUGUAAAAGGUUCCCCCCCCCUACUGUAAAAAAAUAUGCAUGUAUAGUAAUUAGGACUUCAUUCCUCCAUGUUUUCUUCCCUUAUCUUACUGUCAUUGUCCUUAAACCUU,4.5
